# Experimental data from different studies.
# Every numbered part comes from another study and shows a few of its results, in no order.

# Sample 1 — method: RNA Bind-n-Seq; form: RNA; matrix: in vitro; tested at: 200 nM; setting: whole 134-nt RNA, ends assumed; added: 150 mM KCl; baseline: input library; direction: higher = stronger binding
# Target: Ras GTPase-activating protein-binding protein 1, full length (G3BP1, Homo sapiens, UniProt Q13283)
# UniProt Q13283, sequence (whole entry, looked up): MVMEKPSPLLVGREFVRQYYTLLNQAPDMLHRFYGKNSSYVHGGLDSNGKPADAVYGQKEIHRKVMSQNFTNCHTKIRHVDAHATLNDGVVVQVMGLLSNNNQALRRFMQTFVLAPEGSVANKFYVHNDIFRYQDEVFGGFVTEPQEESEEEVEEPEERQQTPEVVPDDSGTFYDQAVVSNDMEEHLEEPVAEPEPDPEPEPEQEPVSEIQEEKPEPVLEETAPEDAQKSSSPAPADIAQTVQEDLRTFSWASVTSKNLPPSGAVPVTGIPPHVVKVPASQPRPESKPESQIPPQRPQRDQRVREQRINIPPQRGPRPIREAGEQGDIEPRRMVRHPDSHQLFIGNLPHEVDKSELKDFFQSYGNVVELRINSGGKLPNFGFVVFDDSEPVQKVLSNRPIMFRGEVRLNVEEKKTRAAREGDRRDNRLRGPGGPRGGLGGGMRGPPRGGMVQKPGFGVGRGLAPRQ
Strand,log2 enrichment
GGGAGUUCUACAGUCCGACGAUCGUCCUGUGCUACACAUCGUAUGUACCGAAUCGGGGAAAAAAAGGGGUGGGGAAAGGGGAAAGUAUUAUGUUACGCCGUUCGGAUCUGCACUGGAAUUCUCGGGUGUCAAGG,0.371
GGGAGUUCUACAGUCCGACGAUCCUGUGCUACACAUCGUAUGUACCGAAUCGGGCCCCCCCGGGGCCCCCCCGGGGCCCCCCCGGAAAGUAUUAUGUUACGCCGUUCGGAUCUUGGAAUUCUCGGGUGUCAAGG,-2.13
GGGAGUUCUACAGUCCGACGAUCUCCUGUGCUACACAUCGUAUGUACCGAAUCGGGCCCCCCGGCCCCCCGGGCCCCCCGGGAAAGUAUUAUGUUACGCCGUUCGGAUCUGCAUGGAAUUCUCGGGUGUCAAGG,-0.473
GGGAGUUCUACAGUCCGACGAUCCUCAAGUCCUGUGCUACACAUCGUAUGUACCGAAUCGGGGAGGGGAGGGGAGGAAAGUAUUAUGUUACGCCGUUCGGAUCUGCACUUCCAUGGAAUUCUCGGGUGUCAAGG,0.999

# Sample 2 — method: protein-binding microarray; form: double-stranded DNA, one strand shown; matrix: in vitro; tested at: 940 nM top; setting: 60-bp whole probe; added: salmon DNA 0.4 mg/ml; baseline: random background probes; direction: higher = stronger binding
# Target: Interferon regulatory factor 5, full length, phosphomimetic (IRF5, Homo sapiens, UniProt Q13568-2, residues 1-514, S451D/S453D/S456D/S462D)
Strand,fitted relative affinity [z-score]
GCCTAGCACGACGATCTCAGGCTGGAGACGTGCTAGGTCTTGATTCGCTTGACGCTGCTG,-0.676
GCCTAGCACTTAGGTCTCCTTTTCCTTTCGTGCTAGGTCTTGATTCGCTTGACGCTGCTG,0.836
GCCTAGCACTTAGGTATCCTTTTCCTTAAGTGCTAGGTCTTGATTCGCTTGACGCTGCTG,0.855

# Sample 3 — method: protein-binding microarray; form: double-stranded DNA, one strand shown; matrix: in vitro; tested at: 0.8 µM; setting: whole 60-bp probe, no competitor; direction: higher = stronger binding
# Target: Centromere-binding protein 1, full length, N-terminal tag (CBF1, Saccharomyces cerevisiae, UniProt P17106, residues 1-351)
# UniProt P17106, sequence (whole entry, looked up): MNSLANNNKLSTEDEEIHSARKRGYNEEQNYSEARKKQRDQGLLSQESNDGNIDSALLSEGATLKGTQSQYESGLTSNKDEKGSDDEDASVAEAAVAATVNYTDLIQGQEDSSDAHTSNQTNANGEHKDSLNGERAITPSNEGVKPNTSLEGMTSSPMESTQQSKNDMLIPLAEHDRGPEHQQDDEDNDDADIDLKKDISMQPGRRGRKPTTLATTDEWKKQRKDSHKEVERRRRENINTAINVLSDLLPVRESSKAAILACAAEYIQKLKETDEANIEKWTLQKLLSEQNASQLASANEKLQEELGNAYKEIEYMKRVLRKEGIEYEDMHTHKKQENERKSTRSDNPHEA
Strand,fluorescence intensity
GAAAGTAACCTCAGGAACGTGACAACTACTTTTTAGGTCTTGATTCGCTTGACGCTGCTG,1420 a.u.
GAACTCTTTACCACTCAGCTGACTTTATTATTTTAGGTCTTGATTCGCTTGACGCTGCTG,1380 a.u.
GAATTTTGCAATCGTGATTACAGAAAAAAAACATAGGTCTTGATTCGCTTGACGCTGCTG,755 a.u.
GAAATCTCATGGATCCTCGTGAGCAACATTTTCTAGGTCTTGATTCGCTTGACGCTGCTG,657 a.u.

# Other studies, line by line
Molecule,target,test,test system,conditions,scale,quantity,value
"PhoQ, residues 284 288 289 292 302 303 GANMMA","PhoP, residues 12 14 15 18 19 AQALL (Escherichia coli, UniProt P23836)","Sort-seq, measured: YFP reporter",E. coli,"PhoQ-PhoP variant library, added: 10 µM Mg2+","baseline: high Mg2+ state, higher = stronger signaling",fold induction,4.15

# A few entries again (sample 3):
Strand,fluorescence intensity
GAAAGTAACCTCAGGAACGTGACAACTACTTTTTAGGTCTTGATTCGCTTGACGCTGCTG,1420 a.u.
